Measurements collected from several papers.
Every numbered part comes from another study and shows a few of its results, in no order. Substitutions count along the parent as printed.

Block 1
Target: CCNA1, cyclin fold, Cln2 fusion (human)
Technique: yeast growth competition, sequencing
Medium: yeast
Setting: strong parent motif
Reference: not given
Direction: higher = stronger binding
Parent: viral docking peptide; YKVKRRLVFGADD; partner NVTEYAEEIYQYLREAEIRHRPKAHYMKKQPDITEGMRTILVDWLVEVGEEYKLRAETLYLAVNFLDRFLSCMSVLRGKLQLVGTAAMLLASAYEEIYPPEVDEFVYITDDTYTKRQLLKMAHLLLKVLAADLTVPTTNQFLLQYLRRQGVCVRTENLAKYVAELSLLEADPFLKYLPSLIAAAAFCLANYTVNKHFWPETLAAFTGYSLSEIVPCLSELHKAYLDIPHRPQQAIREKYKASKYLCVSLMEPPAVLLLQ
`G10P` — result for “normalised enrichment score”: 1.79.
Under “normalised enrichment score”, `G10A` is recorded as 0.76.
For `D12M`, “normalised enrichment score” read 1.79.
`L7T` — result for “normalised enrichment score”: -0.0135.
`R6L` — result for “normalised enrichment score”: 0.227.
`R6T` — result for “normalised enrichment score”: 0.523.
`R6F` — result for “normalised enrichment score”: 0.0783.
`A11P` — result for “normalised enrichment score”: 1.58.
`R5T`: “normalised enrichment score” 0.218.
`K4L` — result for “normalised enrichment score”: -0.00861.
Under “normalised enrichment score”, `R5L` is recorded as -0.384.
`F9M`: “normalised enrichment score” 0.865.
`L7W`: “normalised enrichment score” 0.256.
Under “normalised enrichment score”, `V8Q` is recorded as 1.21.
Under “normalised enrichment score”, `L7V` is recorded as 0.0562.
For `K2D`, “normalised enrichment score” read 1.15.
`K2E` — result for “normalised enrichment score”: 1.43.
Under “normalised enrichment score”, `D12L` is recorded as 1.02.
`L7P` — result for “normalised enrichment score”: 0.188.
Under “normalised enrichment score”, `Y1A` is recorded as 0.428.
`F9K`: “normalised enrichment score” 0.289.
Under “normalised enrichment score”, `F9S` is recorded as 0.418.
Under “normalised enrichment score”, `G10W` is recorded as 0.778.
`K2R`: “normalised enrichment score” 1.31.
`D12I` — result for “normalised enrichment score”: 1.04.

Block 2
Target: TAR DNA-binding protein 43, full length, His tag (TARDBP, Homo sapiens, UniProt Q13148, residues 1-414)
Technique: RNA Bind-n-Seq
Form: RNA
Medium: in vitro
Concentration: 20 nM
Setting: 6-mer, flanks averaged, single round
With: 150 mM LiCl
Reference: input library
Direction: higher = stronger binding
Under “6-mer enrichment (R)”, `CCAUCA` is recorded as 0.879.
`UCAUCU` — result for “6-mer enrichment (R)”: 0.84.
`UUCGGG` — result for “6-mer enrichment (R)”: 0.981.
For `GGGGGU`, “6-mer enrichment (R)” read 1.52.
`ACUUUU`: “6-mer enrichment (R)” 1.11.
`ACGUCA` — result for “6-mer enrichment (R)”: 0.84.
`ACGUCC` — result for “6-mer enrichment (R)”: 0.859.
`ACGAGG`: “6-mer enrichment (R)” 0.942.

Block 3
Target: Histone acetyltransferase KAT6A, winged helix 1, GST fusion (KAT6A, Homo sapiens, UniProt Q92794, residues 1-85)
Technique: protein binding microarray
Form: double-stranded DNA, one strand shown
Medium: in vitro
Concentration: not given
Setting: 8-mer, flanks averaged, mean of 2 arrays, mostly near background
Reference: not given
Direction: higher = stronger binding
Construct (chain): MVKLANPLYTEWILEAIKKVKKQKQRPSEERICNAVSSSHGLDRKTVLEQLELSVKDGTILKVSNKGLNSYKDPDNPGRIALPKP
`AAGTGCAG` gave an E-score of -0.236.
For `CGAGCAAG`, the E-score was -0.0562.
For `AAAAGGTA`, the E-score was -0.108.
`CCTTACGA` gave an E-score of -0.027.
`CGGCCCGC` has an E-score of 0.362.
`CGAATAAA` has an E-score of -0.125.
`TATGTACA` gave an E-score of -0.109.
With `CGTGACCC` the E-score was 0.169.

Block 4
Target: vanadate, free oxyanion
Technique: microfluidic competitive inhibition
Medium: in vitro, cell-free expressed
Concentration: not given
Setting: derived from inhibition constants, unchanged parent 676 nM
Direction: lower = stronger binding
Parent: PafA, mature enzyme, eGFP fusion (Elizabethkingia meningoseptica, UniProt Q9KJX5); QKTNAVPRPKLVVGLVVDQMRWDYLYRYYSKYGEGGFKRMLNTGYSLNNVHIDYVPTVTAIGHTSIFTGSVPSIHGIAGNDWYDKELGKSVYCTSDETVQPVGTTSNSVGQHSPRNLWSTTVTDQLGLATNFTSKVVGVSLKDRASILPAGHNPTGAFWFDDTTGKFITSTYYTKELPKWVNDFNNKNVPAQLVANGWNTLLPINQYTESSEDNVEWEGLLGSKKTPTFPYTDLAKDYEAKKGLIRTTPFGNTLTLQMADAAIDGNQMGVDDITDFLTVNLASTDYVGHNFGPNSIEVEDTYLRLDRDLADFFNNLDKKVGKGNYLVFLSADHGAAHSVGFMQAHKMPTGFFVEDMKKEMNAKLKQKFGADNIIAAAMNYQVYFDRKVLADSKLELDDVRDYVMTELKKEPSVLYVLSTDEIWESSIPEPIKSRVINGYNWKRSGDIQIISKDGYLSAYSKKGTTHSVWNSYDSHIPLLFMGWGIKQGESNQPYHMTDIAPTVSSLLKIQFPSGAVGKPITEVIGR
For `D237G`, “oxyanion analog dissociation constant” read 327 nM.
`N214G` — result for “oxyanion analog dissociation constant”: 666 nM.
For `Q448G`, “oxyanion analog dissociation constant” read 811 nM.

Block 5
Target: UDP-N-acetylglucosamine--peptide N-acetylglucosaminyltransferase 110 kDa subunit (OGT, Homo sapiens, UniProt O15294)
Sequence of UniProt O15294 (whole entry, looked up): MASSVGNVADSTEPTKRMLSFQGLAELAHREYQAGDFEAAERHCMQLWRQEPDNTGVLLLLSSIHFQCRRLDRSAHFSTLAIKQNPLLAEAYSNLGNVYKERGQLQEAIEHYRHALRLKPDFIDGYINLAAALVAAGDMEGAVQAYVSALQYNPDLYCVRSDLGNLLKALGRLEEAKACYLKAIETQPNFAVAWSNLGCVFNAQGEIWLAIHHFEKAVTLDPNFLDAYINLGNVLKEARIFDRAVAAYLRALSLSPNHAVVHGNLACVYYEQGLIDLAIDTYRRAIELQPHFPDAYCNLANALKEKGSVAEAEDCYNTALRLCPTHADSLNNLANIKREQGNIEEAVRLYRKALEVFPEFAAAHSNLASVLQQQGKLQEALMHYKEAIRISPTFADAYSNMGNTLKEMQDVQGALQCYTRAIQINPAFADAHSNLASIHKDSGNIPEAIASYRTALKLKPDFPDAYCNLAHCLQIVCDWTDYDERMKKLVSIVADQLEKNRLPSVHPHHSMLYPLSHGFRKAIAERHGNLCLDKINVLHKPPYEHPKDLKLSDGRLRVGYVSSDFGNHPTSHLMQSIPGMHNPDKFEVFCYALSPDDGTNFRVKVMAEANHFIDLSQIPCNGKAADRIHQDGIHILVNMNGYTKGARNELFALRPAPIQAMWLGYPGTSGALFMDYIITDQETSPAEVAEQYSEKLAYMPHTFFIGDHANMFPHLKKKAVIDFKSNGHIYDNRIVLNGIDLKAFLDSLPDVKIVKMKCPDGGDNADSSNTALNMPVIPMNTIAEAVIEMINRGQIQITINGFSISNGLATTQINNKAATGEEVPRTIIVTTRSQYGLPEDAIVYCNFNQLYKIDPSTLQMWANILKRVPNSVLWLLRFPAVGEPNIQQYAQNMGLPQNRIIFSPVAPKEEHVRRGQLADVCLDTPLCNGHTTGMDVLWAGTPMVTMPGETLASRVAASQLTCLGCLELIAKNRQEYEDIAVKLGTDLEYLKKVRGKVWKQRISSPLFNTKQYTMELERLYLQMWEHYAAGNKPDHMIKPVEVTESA
Effect on: binding
Technique: phage display NGS
Form: peptide
Concentration: concentration not given
Reference: input library
Under “enrichment fold change”, `HLHHYDDYYTHDPVI` is recorded as 6.82.
Under “enrichment fold change”, `HTYDLTGPSHWFTRI` is recorded as 2.26.
For `HDHQHESWFVHIPH`, “enrichment fold change” read 10.6.
`TSFAPEYIIDYIRPV`: “enrichment fold change” 15.9.
Under “enrichment fold change”, `YQNHTHHVYEVYHV` is recorded as 2.85.
`QQIPSIMPMYQIVTP` — result for “enrichment fold change”: 11.7.

Excerpt of the above (block 1):
Under “normalised enrichment score”, `D12L` is recorded as 1.02.
`L7P` — result for “normalised enrichment score”: 0.188.
Under “normalised enrichment score”, `Y1A` is recorded as 0.428.
`F9K`: “normalised enrichment score” 0.289.
Under “normalised enrichment score”, `F9S` is recorded as 0.418.
Under “normalised enrichment score”, `G10W` is recorded as 0.778.
